Experimental data from different studies.
Compare with care: the assays were run in different laboratories. ± marks the error that the study gave.

The intrinsic clearance of C[C@@H]1CN(CC(=O)N2CC(C)(C)c3nc(CO)c(Cc4ccc(F)cc4)cc32)[C@@H](CN2CCOC[C@H]2C)CN1 is reported as 180 ± 13 µL/min/mg (cynomolgus liver microsomes; 1 µM).
Under “elimination rate constant”, Cl.[2H]C([2H])([2H])CC(=O)c1cnc(NC(=O)C2CC2)cc1Nc1cccc(-c2ncn(C([2H])([2H])[2H])n2)c1OC is recorded as 2e-05 s⁻¹ (geometric mean; human; oral, 10 mg once daily, day 7, fasted, liquid, multiple dose).
For N#C[C@@]1(c2ccc3c(N)ncnn23)O[C@H](CO)[C@@H](O)[C@H]1O, the recovery was 99.6% (plasma protein binding; dog plasma; 1 µM, time not given).
For CCN1/C(=C/C(C)=O)Sc2ccc(F)cc21, “PR interval change” read 102 ± 2.2% (cynomolgus monkey; oral, 30 mg/kg, 4 h post-dose; reference: pre-dose).
For C[C@@H](N)COc1ccc(-c2cnc3ccc(N[C@H](C)c4cccc(F)c4)nn23)cc1, “unbound plasma concentration” read 236 ± 22 nM (female Balb/c nude mouse; 100 mg/kg once daily, 12 h (tau/2), steady state).
For CCn1ncc2c1-c1cnc(N)c(c1)O[C@H](C)c1cc(F)ccc1-c1nn(C)nc1C2, “unbound plasma trough concentration” read 0.7 ± 0.3 nM (female BALB/c nude mice, PDX; oral, 0.04 mg/kg once daily for 1 days, 12 h).
For CN1C(=O)[C@@H](NC(=O)c2nnc(Cc3ccccc3)[nH]2)COc2cccnc21, “TEAE leading to permanent discontinuation” read 0% (phase I single ascending dose; human, male and female; oral, 30 mg, fasted).
For CN(C(=O)C(C)(C)c1cc(C(F)(F)F)cc(C(F)(F)F)c1)c1cnc(N2C[C@H]3COCCN3C[C@H]2CO)cc1-c1ccc(F)cc1[14CH3], the pathway contribution was 60% (human liver microsomes; pH 7.4, formation of M30/34).
For O=C(COc1ccc(Cl)cc1)NC12CC(c3nnc([C@H]4C[C@@H](OC(F)(F)F)C4)o3)(C1)C2, “treatment-emergent adverse events” read 16.7% (abdominal discomfort; human, both sexes; oral, 100 mg, single ascending dose, fed; reference: subjects).
COc1ccc2[nH]c([S+]([O-])Cc3ncc(C)c(OC)c3C)nc2c1 (stereo not drawn) gave a Cmax of 385 ± 241 ng/mL (healthy Chinese volunteers, plasma; oral, 20 mg, enteric-coated tablets, CYP2C19 normal metabolizers).
For [18F]c1ccc(-c2ccc3c(c2)[nH]c2ccncc23)cn1, the SUV was 0.632 ± 0.193 (microPET/CT imaging; B6SJL mouse, normal, heart; intravenous, 20 min).
COc1cccc(-c2n[nH]c(SCc3ccccn3)n2)c1OC has a plasma concentration of 846 ng/mL (Sprague-Dawley rats, both sexes; oral dietary, 10 mg/kg/day, day 90, 6 h).
O=C(Nc1ccc(C2CCCCC2)cc1)[C@H]1CC1(F)F has a hepatic clearance of 26 mL/min/kg (liver microsome stability; dog liver microsomes; 1 µM).
The tissue uptake of COc1cccc(OC)c1-c1cc(C(=O)NC2(C(=O)O)C3CC4CC(C3)CC2C4)nn1-c1ccc(C(=O)N(C)CCCN(C)CCCN(C)C(=O)CN2CCN(CC(=O)[O-])CCN(CC(=O)[O-])CCN(CC(=O)[O-])CC2)cc1C(C)C.[177Lu+3] (stereo not drawn) is reported as 0.23 %ID/g (mouse HT-29 xenograft, large intestine; 24 h post injection, biodistribution).
The intrinsic clearance of O=C(NCCN1CCCC1)c1cc(-c2ccc(CN3CCOCC3)cc2)nc2ccc(F)cc12 is reported as no more than 1.9 mL/min/g (dog liver microsomes).
For CNCc1ccc(-c2[nH]c3cc(F)cc4c3c2CCNC4=O)cc1, “pulmonary embolism incidence” read 0% (human patients; oral, 600 mg twice daily, grade 4).
Cn1ncnc1[C@H]1c2n[nH]c(=O)c3cc(F)cc(c23)N[C@@H]1c1ccc(F)cc1 has an AUC(0-8h) of 20.3 ng·h/mL (human patients, plasma; oral, 600 µg/m2 twice daily, day 1, monotherapy, dose level DL4, median).
Cc1cc(NC2CCN(C(=O)OC3CCN(C(=O)/C=C/CN(C)C)C3)CC2)n2ncc(C(C)C)c2n1 (stereo not drawn): “patients with Diarrhea” 49% (patients with advanced solid tumours; dose not given, QD arm, any grade).
With O=C(NCCN1CCCC1=O)c1ccc(C2CCCCC2)cc1 the hepatic clearance was 82 mL/min/kg (liver microsome stability; mouse liver microsomes; 1 µM).
For CC(C)c1nc(N(C)S(C)(=O)=O)nc(-c2ccc(F)cc2)c1/C=C/[C@@H](O)C[C@@H](O)CC(=O)O, the AUCinf ratio was 273% (healthy human volunteers, plasma; oral, dose not given, BCRP probe substrate, together with: momelotinib; reference: compound alone).
The KFoc of C[C@@H]1OC(=O)[C@H](Cc2ccccc2)[C@H]1O is reported as 29.3 mL/g (soil adsorption; clay loam soil; pH 7.2, organic carbon 4.4 %).
The hepatic clearance of c1ncc(-c2ccc(C3CCCCC3)cc2)cn1 is reported as 37 mL/min/kg (hepatocyte stability; cryopreserved rat hepatocytes; 1 µM).
O=C(Nc1ccc(Cl)cc1)Nc1ccc(Cl)c(Cl)c1 — result for “dose fraction in skim milk”: 10.5% (whole cow milk; 200 nM nominal).
CNC(=O)c1ccc(-c2cnc3ncc(Cc4ccc5ncccc5c4)n3n2)cc1F — result for “patients with adverse event”: 0% (refers to: Cough; other cancer patients; oral, 600 mg twice daily, expansion cohort, grade 3-4).
For CCc1cc(OC)c2nccc(N3CCc4c(cc(Cn5ccnc5)cc4-c4cn(C)nc4C(F)(F)F)C3=O)c2c1, the AUC extrapolated was 0.8% (CD-1 mouse, male, plasma; oral, 150 mg/kg).
For COc1cc(Nc2ncc3c(n2)-c2ccc(Cl)cc2C(c2c(F)cccc2OC)=NC3)ccc1C(=O)O, “patients with decreased leukocytes” read 50% (cancer patients; oral, dose not given, all grades any attribution, together with: pembrolizumab).
Under “time to peak seizure response”, C[C@@H](NC(=O)c1ccc(C#Cc2cccc(F)c2)cn1)C(C)(C)O is recorded as roughly 1 h (modified Racine score; Sprague Dawley rat; intraperitoneal, 0.1 to 10 mg/kg).
CC(C(=O)Nc1ccc([C@H]2[C@@H](F)[C@@H](F)C[C@@H](F)[C@H]2F)cc1)n1cncn1 (stereo partly drawn) has a hepatic clearance of 24 mL/min/kg (mouse liver microsomes; 1 µM).
For COc1ccc2c(c1)CCN(C(=O)C1CCN(c3c(C#N)cnc4ccc(F)cc34)CC1)C2, “intrinsic clearance (scaled)” read 709 mL/min/kg (rat liver microsomes).
With C=CC(=O)Nc1cc(Nc2nccc(-c3cn(C4CC4)c4ccccc34)n2)c(OC)cc1N(C)CCN(C)C the relative error was -0.6% (long-term storage stability; rat plasma; 40 ng/mL, 3 weeks, -80 °C; reference: nominal concentration).
CN1CCC(c2ccc(-c3ccc(C4CCCCC4)cc3)cn2)CC1 gave a hepatic clearance of 32 mL/min/kg (liver microsome stability; cynomolgus liver microsomes; 1 µM).
Under “degradation rate constant”, COc1ccc(-c2ncn(S(=O)(=O)c3cc(C(F)(F)F)cc(C(F)(F)F)c3)n2)cc1 is recorded as 0.6 h⁻¹ (chemical stability, HPLC-MS; borate buffered saline; pH 10.2, no N-acetyl-lysine).
CC(C)C[C@@H]1NC(=O)[C@H](C)N(C)C(=O)[C@H](Cc2ccccc2)NCc2cc(c[nH]2)CNC1=O has a -log Pe of 7.53 (PAMPA; lecithin in dodecane; 100 µM, 17 h, pH 6.4, 37 °C).
For Fc1ccc(CCCCN2CCN(c3ccccn3)CC2)cc1, “highest dose without catalepsy” read 75 mg/kg (bar test; Sprague-Dawley rat; intraperitoneal, 60 min).
For Cc1cc(C)c(CNC(=O)c2cc(Cl)c3c(c2C)O[C@@](C)([C@H]2CC[C@H](N(C)C)CC2)O3)c(=O)[nH]1, “grade ≥3 adverse event Hypercalcemia” read 4.2% (relapsed/refractory NHL patients; oral, 200 mg once daily, onset after cycle 1 day 1).
Under “share of subjects with TEAE”, CC(C)(C(=O)N1CCOc2c(C#N)cncc2C1)C(F)F is recorded as 0% (refers to: musculoskeletal disorders; healthy humans, both sexes; oral, 30 mg single dose).
COc1cc(Nc2ncc(F)c(Nc3ccc4c(n3)NC(=O)C(C)(C)O4)n2)cc(OC)c1OC: “single adjusting compartment blood flow” 14 L/h (human).
For Cc1nc2cccc(OCC(C)(C)C(=O)NC(C)C)c2c(N)c1C(=O)O, the Cmax ratio was 0.83 ± 0.28 (Sprague-Dawley rat, male, plasma; oral, 30 mg/kg, day 7 over day 1, 7-day repeated dosing; reference: day 7 over day 1).
CCOc1c([C@H](C)n2nc(C)c3c(N)ncnc32)cc(Cl)c(F)c1[C@@H]1CNC(=O)C1 — result for “observations with PR ≤200 ms”: 91.1% (human B-cell malignancy patients; oral, all doses, baseline below threshold).
CCC(=O)N(CCC(c1ccc2c(c1)OCO2)c1ccccc1OC)Cc1ccccc1 (stereo not drawn) has a BUN/creatinine ratio of 128 (mouse, blood; i.p., 60 mg/kg twice daily, 2 weeks).
O=C1CC[C@H](N2Cc3cc(N4CCN(CC5CCN(c6ccc([C@@H]7c8ccc(O)cc8CC[C@@H]7c7ccccc7)cc6)CC5)CC4)ccc3C2=O)C(=O)N1: “participants with TRAEs” 4.2% (human; oral, 200 mg, together with: dabigatran etexilate 75 mg).
For O=C(Nc1nc2cccc(-c3ccc(CN4CCS(=O)(=O)CC4)cc3)n2n1)C1CC1, “treatment-emergent adverse events” read 0% (refers to: blood amylase increased; rheumatoid arthritis patients; oral, 300 mg once daily, 4 weeks, any relatedness).
O=C(Nc1ccc([C@H]2[C@@H](F)[C@@H](F)C[C@@H](F)[C@H]2F)cc1)c1cn[nH]c1 has a hepatic clearance of 37 mL/min/kg (rat liver microsomes; 1 µM).
C=CC(=O)NC1CCN(c2ncc3ncnc(Nc4ccc(Oc5ccc6c(c5)ncn6C)c(C)c4)c3n2)CC1 — result for “dose recovered as radioactivity”: 89.5% (refers to: total radioactivity; healthy male volunteers, urine and faeces; oral, 60 mg, 240 h, 14C-labelled).
With CC(C)C[C@H](N)C(=O)N[C@@H](Cc1c[nH]c2ccccc12)C(=O)N[C@@H](Cc1c[nH]c2ccccc12)C(=O)N[C@@H](CCCNC(=N)N)C(=O)N[C@@H](Cc1c[nH]c2ccccc12)C(=O)N[C@@H](Cc1c[nH]c2ccccc12)C(=O)N[C@@H](CCCNC(=N)N)C(=O)N[C@@H](Cc1c[nH]c2ccccc12)C(=O)N[C@@H](CCCNC(=N)N)C(=O)O the beta-sheet content was 18.4% (circular dichroism; 50% TFE).

Some of these lines once more:
The intrinsic clearance of O=C(NCCN1CCCC1)c1cc(-c2ccc(CN3CCOCC3)cc2)nc2ccc(F)cc12 is reported as no more than 1.9 mL/min/g (dog liver microsomes).
For CNCc1ccc(-c2[nH]c3cc(F)cc4c3c2CCNC4=O)cc1, “pulmonary embolism incidence” read 0% (human patients; oral, 600 mg twice daily, grade 4).
Cn1ncnc1[C@H]1c2n[nH]c(=O)c3cc(F)cc(c23)N[C@@H]1c1ccc(F)cc1 has an AUC(0-8h) of 20.3 ng·h/mL (human patients, plasma; oral, 600 µg/m2 twice daily, day 1, monotherapy, dose level DL4, median).
Cc1cc(NC2CCN(C(=O)OC3CCN(C(=O)/C=C/CN(C)C)C3)CC2)n2ncc(C(C)C)c2n1 (stereo not drawn): “patients with Diarrhea” 49% (patients with advanced solid tumours; dose not given, QD arm, any grade).
With O=C(NCCN1CCCC1=O)c1ccc(C2CCCCC2)cc1 the hepatic clearance was 82 mL/min/kg (liver microsome stability; mouse liver microsomes; 1 µM).
For CC(C)c1nc(N(C)S(C)(=O)=O)nc(-c2ccc(F)cc2)c1/C=C/[C@@H](O)C[C@@H](O)CC(=O)O, the AUCinf ratio was 273% (healthy human volunteers, plasma; oral, dose not given, BCRP probe substrate, together with: momelotinib; reference: compound alone).
